Published values from different studies.
Every numbered part comes from another study and shows a few of its results, in no order.
UniProt Q16566, sequence (whole entry, looked up): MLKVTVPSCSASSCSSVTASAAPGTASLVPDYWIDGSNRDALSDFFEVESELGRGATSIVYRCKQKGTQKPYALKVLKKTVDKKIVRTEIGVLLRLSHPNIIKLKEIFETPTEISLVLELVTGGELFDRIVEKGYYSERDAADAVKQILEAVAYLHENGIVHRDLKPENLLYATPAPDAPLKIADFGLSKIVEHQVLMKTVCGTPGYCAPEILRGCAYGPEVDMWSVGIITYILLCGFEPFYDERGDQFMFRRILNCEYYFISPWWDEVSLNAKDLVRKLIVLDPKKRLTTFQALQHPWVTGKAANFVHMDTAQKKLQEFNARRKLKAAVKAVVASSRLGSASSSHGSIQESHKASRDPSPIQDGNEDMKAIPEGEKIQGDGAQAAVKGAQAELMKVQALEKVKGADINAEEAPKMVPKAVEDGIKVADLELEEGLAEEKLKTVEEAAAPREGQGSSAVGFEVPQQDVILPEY
UniProt P28482, sequence (whole entry, looked up): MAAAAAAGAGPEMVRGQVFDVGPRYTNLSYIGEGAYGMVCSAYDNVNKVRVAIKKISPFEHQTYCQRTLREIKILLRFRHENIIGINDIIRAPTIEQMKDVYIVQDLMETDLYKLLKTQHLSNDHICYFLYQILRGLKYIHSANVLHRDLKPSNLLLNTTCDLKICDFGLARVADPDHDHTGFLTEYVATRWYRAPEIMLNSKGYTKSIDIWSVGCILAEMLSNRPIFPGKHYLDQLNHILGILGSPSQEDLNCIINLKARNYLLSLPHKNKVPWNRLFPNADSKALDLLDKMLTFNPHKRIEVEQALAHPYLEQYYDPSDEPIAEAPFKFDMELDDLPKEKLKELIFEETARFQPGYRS
UniProt Q6PHR2, sequence (whole entry, looked up): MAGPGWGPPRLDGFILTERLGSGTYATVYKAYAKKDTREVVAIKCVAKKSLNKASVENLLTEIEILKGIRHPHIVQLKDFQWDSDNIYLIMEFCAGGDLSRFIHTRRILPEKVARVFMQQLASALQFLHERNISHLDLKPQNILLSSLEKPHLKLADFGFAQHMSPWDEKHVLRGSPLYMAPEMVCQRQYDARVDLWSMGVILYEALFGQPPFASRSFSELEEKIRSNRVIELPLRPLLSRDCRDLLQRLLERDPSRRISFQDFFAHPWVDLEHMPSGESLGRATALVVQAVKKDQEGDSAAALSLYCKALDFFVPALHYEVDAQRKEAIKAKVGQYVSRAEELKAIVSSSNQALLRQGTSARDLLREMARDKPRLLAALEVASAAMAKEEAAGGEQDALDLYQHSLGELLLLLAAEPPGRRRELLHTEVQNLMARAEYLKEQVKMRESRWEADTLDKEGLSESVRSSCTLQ
UniProt Q96L34, sequence (whole entry, looked up): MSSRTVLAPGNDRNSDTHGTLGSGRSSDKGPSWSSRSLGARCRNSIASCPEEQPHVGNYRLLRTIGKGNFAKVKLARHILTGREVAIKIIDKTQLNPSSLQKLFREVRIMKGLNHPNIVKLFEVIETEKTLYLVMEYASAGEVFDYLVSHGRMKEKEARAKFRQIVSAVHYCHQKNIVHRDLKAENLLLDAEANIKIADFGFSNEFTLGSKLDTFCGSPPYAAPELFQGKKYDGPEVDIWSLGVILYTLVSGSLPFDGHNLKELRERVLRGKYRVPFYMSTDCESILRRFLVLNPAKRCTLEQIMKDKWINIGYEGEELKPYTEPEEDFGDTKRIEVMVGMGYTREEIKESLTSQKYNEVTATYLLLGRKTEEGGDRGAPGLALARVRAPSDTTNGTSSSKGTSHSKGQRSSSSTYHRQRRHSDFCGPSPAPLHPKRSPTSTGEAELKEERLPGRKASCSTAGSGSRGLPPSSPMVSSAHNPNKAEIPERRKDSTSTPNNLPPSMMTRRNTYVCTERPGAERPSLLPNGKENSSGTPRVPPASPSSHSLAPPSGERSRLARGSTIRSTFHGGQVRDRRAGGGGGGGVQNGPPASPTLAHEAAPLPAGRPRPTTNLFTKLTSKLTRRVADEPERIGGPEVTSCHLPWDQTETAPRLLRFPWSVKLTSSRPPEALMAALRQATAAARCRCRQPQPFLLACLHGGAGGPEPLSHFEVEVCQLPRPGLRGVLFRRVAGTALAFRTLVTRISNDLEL
UniProt P51956, sequence (whole entry, looked up): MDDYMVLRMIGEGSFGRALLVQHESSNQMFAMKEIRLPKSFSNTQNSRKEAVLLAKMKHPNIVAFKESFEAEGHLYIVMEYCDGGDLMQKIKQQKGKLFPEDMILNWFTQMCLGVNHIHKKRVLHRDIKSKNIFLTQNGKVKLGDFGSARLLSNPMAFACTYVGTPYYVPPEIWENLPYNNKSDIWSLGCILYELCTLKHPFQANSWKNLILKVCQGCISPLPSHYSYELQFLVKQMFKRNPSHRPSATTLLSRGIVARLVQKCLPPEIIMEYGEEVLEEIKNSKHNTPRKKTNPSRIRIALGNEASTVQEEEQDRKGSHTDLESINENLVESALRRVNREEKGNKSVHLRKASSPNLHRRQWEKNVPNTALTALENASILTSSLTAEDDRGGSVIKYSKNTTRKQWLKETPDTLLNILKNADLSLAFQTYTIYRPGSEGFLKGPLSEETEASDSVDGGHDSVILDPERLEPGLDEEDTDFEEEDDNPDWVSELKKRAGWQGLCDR
UniProt Q9HAZ1, sequence (whole entry, looked up): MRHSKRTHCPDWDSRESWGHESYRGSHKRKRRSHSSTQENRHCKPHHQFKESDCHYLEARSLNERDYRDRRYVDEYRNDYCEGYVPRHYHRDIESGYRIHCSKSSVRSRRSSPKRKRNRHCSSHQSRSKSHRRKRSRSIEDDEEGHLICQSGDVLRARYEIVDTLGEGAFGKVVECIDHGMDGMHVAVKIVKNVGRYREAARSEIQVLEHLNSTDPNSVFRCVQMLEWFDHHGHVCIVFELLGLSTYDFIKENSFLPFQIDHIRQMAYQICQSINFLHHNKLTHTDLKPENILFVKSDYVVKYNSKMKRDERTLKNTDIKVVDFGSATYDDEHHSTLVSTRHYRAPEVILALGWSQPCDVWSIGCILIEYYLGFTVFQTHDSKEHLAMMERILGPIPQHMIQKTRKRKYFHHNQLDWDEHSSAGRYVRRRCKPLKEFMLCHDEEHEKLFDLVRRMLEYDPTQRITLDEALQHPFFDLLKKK
UniProt P06493, sequence (whole entry, looked up): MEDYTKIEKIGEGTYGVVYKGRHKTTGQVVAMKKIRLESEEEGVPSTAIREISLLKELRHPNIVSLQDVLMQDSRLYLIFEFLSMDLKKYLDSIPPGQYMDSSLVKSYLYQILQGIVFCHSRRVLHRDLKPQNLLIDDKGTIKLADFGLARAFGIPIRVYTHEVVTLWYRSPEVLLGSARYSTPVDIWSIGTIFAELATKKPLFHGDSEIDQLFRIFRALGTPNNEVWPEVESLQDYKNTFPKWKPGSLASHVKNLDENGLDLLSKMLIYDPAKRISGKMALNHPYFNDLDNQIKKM
UniProt Q16539, sequence (whole entry, looked up): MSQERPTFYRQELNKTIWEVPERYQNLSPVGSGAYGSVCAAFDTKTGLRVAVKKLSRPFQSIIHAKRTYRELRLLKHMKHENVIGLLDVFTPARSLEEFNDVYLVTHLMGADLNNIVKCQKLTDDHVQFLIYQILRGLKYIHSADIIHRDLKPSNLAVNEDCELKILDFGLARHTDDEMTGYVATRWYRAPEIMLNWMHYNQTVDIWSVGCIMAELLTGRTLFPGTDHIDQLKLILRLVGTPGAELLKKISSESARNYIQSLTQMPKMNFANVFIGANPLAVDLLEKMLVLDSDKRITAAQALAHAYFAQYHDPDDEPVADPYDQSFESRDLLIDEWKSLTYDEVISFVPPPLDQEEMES
UniProt Q9P289, sequence (whole entry, looked up): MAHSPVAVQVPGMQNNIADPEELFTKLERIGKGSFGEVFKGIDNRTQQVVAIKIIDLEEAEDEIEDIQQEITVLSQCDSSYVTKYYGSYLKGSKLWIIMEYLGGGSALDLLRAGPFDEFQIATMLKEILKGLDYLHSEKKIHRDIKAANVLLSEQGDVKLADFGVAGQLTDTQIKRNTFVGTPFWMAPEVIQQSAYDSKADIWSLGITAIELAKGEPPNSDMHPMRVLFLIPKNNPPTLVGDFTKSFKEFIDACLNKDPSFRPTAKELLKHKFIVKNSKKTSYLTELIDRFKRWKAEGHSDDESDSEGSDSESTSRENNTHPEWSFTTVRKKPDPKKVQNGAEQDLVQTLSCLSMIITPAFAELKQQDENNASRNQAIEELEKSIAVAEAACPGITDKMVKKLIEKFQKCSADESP
UniProt Q7KZI7, sequence (whole entry, looked up): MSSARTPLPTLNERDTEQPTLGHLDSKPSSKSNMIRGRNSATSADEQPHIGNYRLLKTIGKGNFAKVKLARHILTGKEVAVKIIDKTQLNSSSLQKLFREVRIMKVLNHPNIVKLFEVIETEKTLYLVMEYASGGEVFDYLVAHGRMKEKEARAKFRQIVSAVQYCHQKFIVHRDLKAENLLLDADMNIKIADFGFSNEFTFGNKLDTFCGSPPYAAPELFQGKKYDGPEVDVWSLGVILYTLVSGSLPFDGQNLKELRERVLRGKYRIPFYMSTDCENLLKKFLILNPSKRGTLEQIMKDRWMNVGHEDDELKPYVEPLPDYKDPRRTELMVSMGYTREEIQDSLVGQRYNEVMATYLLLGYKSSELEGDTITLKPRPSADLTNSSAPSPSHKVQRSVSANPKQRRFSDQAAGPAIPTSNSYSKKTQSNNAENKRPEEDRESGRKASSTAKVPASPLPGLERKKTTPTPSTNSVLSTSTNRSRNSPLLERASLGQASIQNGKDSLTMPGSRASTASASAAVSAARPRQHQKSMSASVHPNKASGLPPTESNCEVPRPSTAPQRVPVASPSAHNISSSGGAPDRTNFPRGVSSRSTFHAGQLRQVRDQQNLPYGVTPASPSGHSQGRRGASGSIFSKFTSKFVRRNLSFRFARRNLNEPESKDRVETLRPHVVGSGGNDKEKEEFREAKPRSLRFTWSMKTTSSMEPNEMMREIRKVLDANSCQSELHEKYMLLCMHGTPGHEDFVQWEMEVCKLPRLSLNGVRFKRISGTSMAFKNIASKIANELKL

Series 1
SMILES: CCCCN(CCCC)C(=O)CN1C[C@@H](c2cc(OC)c3c(c2)OCO3)[C@H](C(=O)O)[C@H]1CC(C)(C)CCC
Read-out: cell-free assay
Technique: competition with immobilised ligand
Tested at: 1 µM
For Serine/threonine-protein kinase ULK3 (ULK3, Homo sapiens, UniProt Q6PHR2): remaining binding read 90.7%.
The remaining binding was 100% (Tyrosine-protein kinase ABL1, non-phosphorylated (ABL1, Homo sapiens, UniProt P00519, T315I)).
Serine/threonine-protein kinase N2 (PKN2, Homo sapiens, UniProt Q16513) — remaining binding: 100%.
The remaining binding was 67.9% (Serine/threonine-protein kinase TAO3 (TAOK3, Homo sapiens, UniProt Q9H2K8)).
Dual specificity mitogen-activated protein kinase kinase 5 (MAP2K5, Homo sapiens, UniProt Q13163) — remaining binding: 100%.
Epidermal growth factor receptor (EGFR, Homo sapiens, UniProt P00533, T790M) — remaining binding: 86.7%.
It gave 100% for remaining binding (Phosphatidylinositol 4,5-bisphosphate 3-kinase catalytic subunit alpha isoform (PIK3CA, Homo sapiens, UniProt P42336, Q546K)).
It gave 100% for remaining binding (Serine/threonine-protein kinase 26 (STK26, Homo sapiens, UniProt Q9P289)).
Receptor-type tyrosine-protein kinase FLT3 (FLT3, Homo sapiens, UniProt P36888, D835V) — remaining binding: 78.8%.
Ribosomal protein S6 kinase alpha-5, N-terminal kinase domain (RPS6KA5, Homo sapiens, UniProt O75582) — remaining binding: 74.4%.
It gave 100% for remaining binding (RAC-gamma serine/threonine-protein kinase (AKT3, Homo sapiens, UniProt Q9Y243)).

Series 2
SMILES: O=C(NC(NC(=S)Nc1ccc(F)c([N+](=O)[O-])c1)C(Cl)(Cl)Cl)C(c1ccccc1)c1ccccc1 (centres unmarked)
Read-out: enzyme activity
Action: inhibitor
Tested at: 0.5 µM
Reference: control
The remaining activity was 108% (Tyrosine-protein kinase TXK (TXK, Homo sapiens, UniProt P42681)).
Serine/threonine-protein kinase Nek3 (NEK3, Homo sapiens, UniProt P51956) — remaining activity: 96.2%.
The remaining activity was 92.3% (Serine/threonine-protein kinase MARK2 (MARK2, Homo sapiens, UniProt Q7KZI7)).
Dual specificity protein kinase CLK3 (CLK3, Homo sapiens, UniProt P49761) — remaining activity: 124%.
It gave 95.1% for remaining activity (Dual specificity mitogen-activated protein kinase kinase 1 (MAP2K1, Homo sapiens, UniProt Q02750)).
Serine/threonine-protein kinase PAK 3 (PAK3, Homo sapiens, UniProt O75914) — remaining activity: 91.9%.
It gave 92.5% for remaining activity (Vascular endothelial growth factor receptor 2 (KDR, Homo sapiens, UniProt P35968)).
It gave 104% for remaining activity (MAP/microtubule affinity-regulating kinase 4 (MARK4, Homo sapiens, UniProt Q96L34)).
For Serine/threonine-protein kinase DCLK2 (DCLK2, Homo sapiens, UniProt Q8N568): remaining activity read 108%.
The remaining activity was 101% (Mitogen-activated protein kinase 14 (MAPK14, Homo sapiens, UniProt Q16539)).
For Mitogen-activated protein kinase 1 (MAPK1, Homo sapiens, UniProt P28482): remaining activity read 97.6%.
The remaining activity was 110% (Misshapen-like kinase 1 (MINK1, Homo sapiens, UniProt Q8N4C8)).
The remaining activity was 101% (G protein-coupled receptor kinase 4 (GRK4, Homo sapiens, UniProt P32298)).
It gave 115% for remaining activity (Calcium/calmodulin-dependent protein kinase type 1B (PNCK, Homo sapiens, UniProt Q6P2M8)).
It gave 94.4% for remaining activity (Serine/threonine-protein kinase PLK3 (PLK3, Homo sapiens, UniProt Q9H4B4)).
Dual specificity protein kinase CLK4 (CLK4, Homo sapiens, UniProt Q9HAZ1) — remaining activity: 105%.
Calcium/calmodulin-dependent protein kinase type IV (CAMK4, Homo sapiens, UniProt Q16566) — remaining activity: 98.5%.
It gave 92.7% for remaining activity (Ribosomal protein S6 kinase alpha-4 (RPS6KA4, Homo sapiens, UniProt O75676)).
The remaining activity was 97.2% (Serine/threonine-protein kinase MRCK beta (CDC42BPB, Homo sapiens, UniProt Q9Y5S2)).
Hepatocyte growth factor receptor (MET, Homo sapiens, UniProt P08581) — remaining activity: 101%.
For Rho-associated protein kinase 1 (ROCK1, Homo sapiens, UniProt Q13464): remaining activity read 99.8%.
For Cyclin-dependent kinase 9, with cyclin K (CDK9, Homo sapiens, UniProt P50750): remaining activity read 110%.
The remaining activity was 101% (Cyclin-dependent kinase 1, with cyclin A (CDK1, Homo sapiens, UniProt P06493)).
For RAC-beta serine/threonine-protein kinase (AKT2, Homo sapiens, UniProt P31751): remaining activity read 91.6%.
It gave 96.4% for remaining activity (Discoidin domain-containing receptor 2 (DDR2, Homo sapiens, UniProt Q16832)).

Series 3
Target: His6 tag
Technique: AlphaScreen counter screen
Tested at: concentration not given
`COc1ccc(-c2nnc3ccc(SCC(=O)N4CCOCC4)nn23)cc1OC` has an inhibition of 10.7%.
The inhibition of `N#CC(C(=O)C1CC1)=C1Nc2ccccc2S1` is reported as 17.1%.
For `CC=CCn1cnc2c1c(=O)n(C)c(=O)n2C`, the inhibition was -10.9%.
`N#CC[C@H](C1CCCC1)n1cc(-c2ncnc3[nH]ccc23)cn1` has an inhibition of 2.55%.
`CC(=O)Nc1cn2c(NC(=O)c3cccnc3)c(Cc3ccccc3)nc2cn1` gave an inhibition of 20.9%.
The inhibition of `CC(=O)Nc1ccc(NC(=O)CSc2ccc3nnc(-c4cccc(F)c4)n3n2)cc1` is reported as 0.5%.
The inhibition of `O=C1NC(=O)C(=Cc2ccc(-c3cc(Cl)ccc3Cl)o2)S1` is reported as -10.1%.
`N#CC(=C1CCCN1)c1nc2ccccc2s1` has an inhibition of 7.4%.
With `COc1ccc2nc(NC(=O)C3C4CCC(C4)C3C(=O)O)sc2c1` (centres unmarked) the inhibition was 0.55%.

Series 4
Cell line: HaCaT
Tested at: 100 µM
Time: 18 h
For `COc1cc(NS(C)(=O)=O)ccc1Nc1c2ccccc2nc2ccccc12`, the viability was 27.3%.
For `N#Cc1ccc(C(c2ccc(C#N)cc2)n2cncn2)cc1`, the viability was 110%.
`CCCCCCCCCCCCCCCC[N+](C)(C)CCN(Cc1ccc(OC)cc1)c1ncccn1` has a viability of 18.3%.
With `Cc1cccc(C)c1NC(=O)c1ccccc1C(=O)O` the viability was 99.3%.
`Nc1ncnc2c1ncn2[C@@H]1O[C@H](CO)[C@@H](O)[C@H]1O` gave a viability of 88.3%.
For `CC1(C)O[C@@H]2[C@@H](CO[C@@]3(COS(N)(=O)=O)OC(C)(C)O[C@@H]23)O1`, the viability was 107%.
For `CN1CCC(=C2c3ccccc3CC(=O)c3sccc32)CC1`, the viability was 108%.
`CC(C)[C@H](NC(=O)[C@H](CC(=O)O)NC(=O)[C@H](CCCCN)NC(=O)[C@@H](N)CCCN=C(N)N)C(=O)N[C@@H](Cc1ccc(O)cc1)C(=O)O` has a viability of 110%.
With `Nc1cc(F)ccc1NC(=O)c1ccc(CNC(=O)/C=C/c2cccnc2)cc1` the viability was 40.3%.
`CCCCCCCCOc1ccccc1C(=O)Nc1ccc(C(=O)OCC[N+](C)(CC)CC)cc1` gave a viability of 17.6%.
With `COc1cc(S(=O)(=O)O)ccc1O` the viability was 111%.

Some of these lines once more (series 4):
`CC(C)[C@H](NC(=O)[C@H](CC(=O)O)NC(=O)[C@H](CCCCN)NC(=O)[C@@H](N)CCCN=C(N)N)C(=O)N[C@@H](Cc1ccc(O)cc1)C(=O)O` has a viability of 110%.
With `Nc1cc(F)ccc1NC(=O)c1ccc(CNC(=O)/C=C/c2cccnc2)cc1` the viability was 40.3%.
`CCCCCCCCOc1ccccc1C(=O)Nc1ccc(C(=O)OCC[N+](C)(CC)CC)cc1` gave a viability of 17.6%.
With `COc1cc(S(=O)(=O)O)ccc1O` the viability was 111%.
